Measurements gathered from unrelated publications.
Values joined by “and” are separate records of one study, mostly repeats; a detail may differ. Numbers after ± are the reported error.
Cell line: HeLa

Compound	assay	setting	quantity	value
Cc1ccc2c(Br)cc(Br)c([O-])c2n1.Cc1ccc2c(Br)cc(Br)c([O-])c2n1.[Co+2].c1cnc2c(c1)c1nccnc1c1cccnc12	cell growth or viability, MTT	48 h	IC50	5.28 µM
CC(=O)N[C@H]1CSCC(c2nnc(-c3ccccc3)nn2)CSC[C@@H](C(N)=O)NC(=O)[C@@H](Cc2ccccc2)NC(=O)[C@H](CC(=O)O)NC(=O)CNC(=O)[C@H](CCCNC(=N)N)NC1=O (stereo partly shown)	cell growth or viability, CCK-8	72 h	IC50	> 10 µM
N=C(N)NCCC[C@H](NC(=O)[C@H](CCCNC(=N)N)NC(=O)[C@H](CCCNC(=N)N)NC(=O)[C@H](CCC(N)=O)NC(=O)[C@H](CCCNC(=N)N)NC(=O)[C@H](CCCNC(=N)N)NC(=O)[C@H](CCCCN)NC(=O)[C@H](CCCCN)NC(=O)[C@H](CCCNC(=N)N)NC(=O)[C@H](Cc1c[nH]c2ccccc12)NC(=O)[C@H](Cc1c[nH]c2ccccc12)NC(=O)[C@@H](N)CSSC[C@H](N)C(=O)N[C@@H](Cc1c[nH]c2ccccc12)C(=O)N[C@@H](Cc1c[nH]c2ccccc12)C(=O)N[C@@H](CCCNC(=N)N)C(=O)N[C@@H](CCCCN)C(=O)N[C@@H](CCCCN)C(=O)N[C@@H](CCCNC(=N)N)C(=O)N[C@@H](CCCNC(=N)N)C(=O)N[C@@H](CCC(N)=O)C(=O)N[C@@H](CCCNC(=N)N)C(=O)N[C@@H](CCCNC(=N)N)C(=O)N[C@@H](CCCNC(=N)N)C(=O)NCC(N)=O)C(=O)NCC(N)=O	protein delivery, fluorescence microscopy, measured: AF488-H1	2.5 µM, 1 h, added: AF488-H1 0.75 µM	nuclear concentration	3 to 10 µM
C#CCCCC[C@H](C)C[C@@H](C)C(=O)N[C@@H](C)C(=O)N1CCC[C@H]1C(=O)N[C@H](C(=O)N[C@H](C(=O)N[C@H](C(=O)N[C@@H](Cc1ccccc1)C(=O)N1CCC[C@H]1C(=O)N1CCC[C@H]1C(C)=O)C(C)C)C(C)C)C(C)C	cell growth or viability, SRB		IC50	41.3 µM and 38 µM and 37 µM
C[C@@H](N)[C@H](O)CCCCCCCC(=O)CCCCCCCCCCCCCC[C@@H](O[C@@H]1O[C@H](CO)[C@@H](O)[C@H](O)[C@H]1O)[C@@H](N)CO	cytotoxicity	concentration not given	growth inhibition	92 ± 3.08%
CSc1cc(C)[nH]c(=O)c1CNC(=O)c1c(C)n([C@H](C)C2CCN(CC(F)(F)F)CC2)c2ccccc12	histone methylation reduction, AlphaLISA, measured: H3K27me3	72 h	EC50	0.0025 µM
COC(=O)[C@H](C(C)C)N(C)C(=O)[C@H](C(C)C)N(C)C(=O)[C@@H]1CCCN1C(=O)[C@H](C)N(C)C(=O)OC(C)(C)C	cell growth or viability, SRB		IC50	24.6 µM and 20.8 µM and 23.3 µM
CC(C)=CCc1c(O)cc2c(c1O)C(=O)CC(c1ccc(O)cc1)O2 (stereo not shown)	cell growth or viability, MTT	0.781 µM, 48 h	inhibition	1.37%
CC(N)C(O)CCCCCCCCCCCCCCC(=O)CCCCCCCC(O)C(C)N (stereo not shown)	cytotoxicity	concentration not given	growth inhibition	16%
COCCOCCOCCOCCOCCOCCOCCOCCC(=O)N1CCC[C@H]1C(=O)N[C@@H](CC(C)C)C(=O)N[C@@H](Cc1cncn1CCCCCCCCc1ccccc1)C(=O)N[C@@H](CO)C(=O)N[C@H](C(N)=O)[C@@H](C)CP(=O)(O)O	cell proliferation	24 h, thymidine-block synchronised	IC50	~380 µM

Repeated from above:
Compound	assay	setting	quantity	value
COCCOCCOCCOCCOCCOCCOCCOCCC(=O)N1CCC[C@H]1C(=O)N[C@@H](CC(C)C)C(=O)N[C@@H](Cc1cncn1CCCCCCCCc1ccccc1)C(=O)N[C@@H](CO)C(=O)N[C@H](C(N)=O)[C@@H](C)CP(=O)(O)O	cell proliferation	24 h, thymidine-block synchronised	IC50	~380 µM
